Results gathered from unrelated publications.
Each numbered part is a random draw from the data of one study; scales do not carry over between parts.

Series 1
Target: Max-binding protein MNT, bHLH-zipper, MAX partner unstated (MNT, Homo sapiens, UniProt Q99583, residues 220-300)
Method: protein-binding microarray
Molecule type: double-stranded DNA, one strand shown
Sample: in vitro
Tested at: not given
Setting: k-mer, scored over probes, only values ≥0.25
Reading: higher = stronger binding
Construct (chain): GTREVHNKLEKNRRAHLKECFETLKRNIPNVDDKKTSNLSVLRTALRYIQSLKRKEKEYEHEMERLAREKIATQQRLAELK
Strand | E-score
ACACGCAG | 0.276
CCACGCAA | 0.27
ACACGCCT | 0.311
ACGCCTAT | 0.25
ACGAGCGG | 0.274
ACGCTCGC | 0.253
GCGTGGTA | 0.442
CGCCGCAC | 0.343
CCCCAAGC | 0.29
CACGTTTC | 0.409
CACGAGCC | 0.266
AATCCACG | 0.291

Series 2
Target: RNA binding protein fox-1 homolog 2, RRM domain, GST-SBP tag (RBFOX2, Homo sapiens, UniProt O43251-10, residues 100-194)
Method: RNA Bind-n-Seq
Molecule type: RNA
Sample: in vitro
Tested at: 365 nM
Setting: natural RNA segment, single round, ends assumed
Reference: no-protein control
Reading: higher = stronger binding
Constant ends, left off below: GGGAGUUCUACAGUCCGACGAUC … UGGAAUUCUCGGGUGCCAA
Construct (chain): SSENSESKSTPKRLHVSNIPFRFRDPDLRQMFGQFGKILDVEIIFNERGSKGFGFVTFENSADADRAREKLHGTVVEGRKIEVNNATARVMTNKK
Strand | RBNS enrichment (R)
AAAGAAUAGUGUUUGUCCCUAUGGUAGCCUCAGUCUCUUUAUCACUAACUUGGAUUGAAAUGAGUGAGGCCAACUCACAUUCCCAUCAAACACUCUUCCAAGGAAAAGCA | 0.743
GCAGCCCCUCCAGCUGCUGGUGAUCUCACCCCUGGGACAUUUUUCCAAUAAAGGUUCUGGACAAACUGAACUGACUGGUUCCUGUAUGGUAUGCUGAAGACAUCUCUACA | 0.376
GGCUUCCAUUUGGAUGGGCCUGCCUUAACAUUGUUUGAAAUGCAGCGUGAGUAGCUCUUUUGUUUACUGUUUACACCCCUUAUUGGCAUGUCAACUCCUGUACUUCCCUU | 0.369
AAUCAACUGAACAUAUAUGUAAGAGUUAUUUAAAUUUUGAAAUUGGGACGUAUACAUUCUCCAUUCUUUUUGACAUUAUUUUGGCUAAUCUGGGUCCUCUGCAUUUCUGU | 0.656
CCUGCUGUGGUUAACCUGUUAUGUUGCUUUUGGAAGGAGACUCUAAGACAGGGAAAGCAAGUUCAUGGUACAUACGCAGCCAUUGUCUCUGUUUUUACCCAUGGCAGACA | 1.1
UGACUGAGCAAUAUGCCUCCUUGUAUUAUAAAAUCUUUCUGAUAAUGCAUUAGAAGGUUUUUUUGUCGAUUAGUAAAAGUGCUUUCCAUGUUACUUUAUUCAGAGCUAAU | 0.327
AACAGAGAUAUAUUUUGUACAAAAUGAACUGUUAAGUUGCCUUUGGCUAACAUCCAUAUGUAUAUAUCUUAUUUAUAAAUAAAAAUUGUAAAUGUCAGUUUCGGUAUCCC | 0.581
AGUAUGGGGUUUGUGCUAUGUGGAUGGAUAUGUAAGGAACUCCAGUUCCAGCUACAACUAAAUACAACGUCCUUUGCACCCCUAGAAUGUCAUUUUGCCCUCAAUCUUGG | 1.17

Series 3
Target: TAR DNA-binding protein 43, full length, His tag (TARDBP, Homo sapiens, UniProt Q13148, residues 1-414)
Method: RNA Bind-n-Seq
Molecule type: RNA
Sample: in vitro
Tested at: 20 nM
Setting: 6-mer, flanks averaged, single round
Added: 150 mM LiCl
Reference: input library
Reading: higher = stronger binding
Strand | 6-mer enrichment (R)
GUCUCC | 0.938
CCCACG | 0.972
GUCCAU | 0.913
UUUGAA | 1.07
UCGCUC | 0.831
UAGCGA | 0.902
CAUGUA | 0.973
AAACUC | 0.861
GCGGCC | 1.03
CUUACC | 0.911
GCUGCU | 0.968
GGCGUU | 1.02

Series 4
Target: Probable WRKY transcription factor 11, DNA-binding domain (WRKY11, Arabidopsis thaliana, UniProt Q9SV15, residues 228-325)
Method: DNA-protein interaction ELISA
Molecule type: double-stranded DNA, one strand shown
Sample: in vitro, bacterial lysate
Tested at: not given
Setting: whole dsDNA probe, crude lysate protein
Reference: highest signal in screen
Reading: higher = stronger binding
Residues (chain): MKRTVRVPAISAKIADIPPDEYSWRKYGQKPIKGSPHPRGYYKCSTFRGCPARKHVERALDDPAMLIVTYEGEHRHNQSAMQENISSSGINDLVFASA
Strand | relative absorbance
AAAAAAAAGCTTCGGAGTCTTGAGAAAAAA | 19 % of maximum
AAAAAAGCGCGAATTCTAGAACTATAAAAA | 14.1 % of maximum
AAAAAAGGCGGTCGTAGTTGTGGGAGAAAA | 31.1 % of maximum
AAAAAATTGCCGTCATAATTGTGGTAAAAA | 15.3 % of maximum
AAAAAAACTATAGTCTTTGTCATGATAAAA | 17 % of maximum
AAAAAACTGGTGTATCTCCTCAATTAAAAA | 17 % of maximum
AAAAAAATATTTGAGCTAGGTTATCAAAAA | 14.1 % of maximum
AAAAAAGTCCGCCCTTAATTCATATTAAAA | 34 % of maximum
AAAAAAGACACTCTAATTCCGTAGGCAAAA | 10.7 % of maximum
AAAAAATTTTGTTTTTGCTTTTCCTTAAAA | 9.8 % of maximum
AAAAAACCTTACCTCATCCCTATCCCAAAA | 14.7 % of maximum
AAAAAAAATACTGCGCACTTGCACTCAAAA | 14.7 % of maximum
AAAAAAGTCCATAAACTAAATTGGATAAAA | 14.1 % of maximum
AAAAAAGGGAGTCATGCTTCTTGTTTAAAA | 16.7 % of maximum
AAAAAATATTCGCCGGTAGCCACGCTAAAA | 13.8 % of maximum
AAAAAATCGCACTGCCGCCGATGGCTAAAA | 15.3 % of maximum
AAAAAAGGAAAACGAGTTCATCTGGTAAAA | 14.1 % of maximum
AAAAAAGTCTAGTCGTAAAAA | 18.7 % of maximum
AAAAAATAATTACAAGTCGGCTCCACAAAA | 18.4 % of maximum

Series 5
Target: PABPC1L2, full length, GST fusion (mouse, UniProt A0ABA7IW68)
Method: RNAcompete
Molecule type: RNA
Sample: in vitro
Tested at: 20 nM
Setting: 7-mer, probes averaged, single round
Reference: mean of 7-mers
Reading: higher = stronger binding
Target sequence (chain): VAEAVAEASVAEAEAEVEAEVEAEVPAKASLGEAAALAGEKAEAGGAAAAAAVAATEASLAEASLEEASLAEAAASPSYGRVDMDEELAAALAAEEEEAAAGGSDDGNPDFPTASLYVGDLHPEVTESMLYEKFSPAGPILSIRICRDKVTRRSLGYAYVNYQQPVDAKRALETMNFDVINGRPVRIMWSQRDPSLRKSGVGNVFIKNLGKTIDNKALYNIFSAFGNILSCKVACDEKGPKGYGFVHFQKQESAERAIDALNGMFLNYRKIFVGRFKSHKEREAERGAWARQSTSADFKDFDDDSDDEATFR
Strand | 7-mer Z-score
CCUAAGU | -0.322
CACCACC | -0.177
GUAGCGA | -0.0264
GCGCAGG | 0.216
GCAACCU | -0.121
GCGGAUU | -0.0156
ACUCCAG | -0.0899
UGUUAUC | -0.251
GCUGAGG | 0.256
GUAGCCU | -0.309
AAUUGGU | 0.215
GCACAUA | 0.00617
AUCGAAU | 0.0732
UAAUCAA | 0.095
GCCUGUG | -0.211

Series 6
Target: Interferon regulatory factor 5, full length, phosphomimetic (IRF5, Homo sapiens, UniProt Q13568-2, residues 1-514, S451D/S453D/S456D/S462D)
Method: protein-binding microarray
Molecule type: double-stranded DNA, one strand shown
Sample: in vitro
Tested at: 940 nM top
Setting: 60-bp whole probe
Added: salmon DNA 0.4 mg/ml
Reference: random background probes
Reading: higher = stronger binding
Constant ends, left off below: GCCTAGCAC … GTCTTGATTCGCTTGACGCTGCTG
Strand | fitted relative affinity
GACGGGTTCGGTATCGGGACGTGCTAG | 1.82 z-score
TTAGGACTGGGTATCAGTTAGTGCTAG | 0.384 z-score
TTAGATATCAGAATGGATTAGTGCTAG | -0.287 z-score
GACGGACTGGACTATGGGGACGTGCTA | -0.248 z-score
TTAGATATCAGTCTTGATTAGTGCTAG | -0.0421 z-score
TTAGGTTTCTGGTTTCGGTTAGTGCTA | 9.19 z-score
TAAGATATCGGGTTTCGATTAGTGCTA | 5.7 z-score
TTAGTACTGGGGTTTCGGTTAGTGCTA | 5.8 z-score
TCATCTTTCCACTTGTCACTGTGCTAG | 1.46 z-score
TTAGATCTCAGCTTCGATTAGTGCTAG | 0.0329 z-score
CTTTTTCCCTATTATATATATGTGCTA | 2.34 z-score
GACGAACTGAGAATGGAGACGTGCTAG | 0.0515 z-score
TTAGGGCTCGGTTTCGGTTAGTGCTAG | 7.62 z-score
GATGAACTGAGACTGGAGACGTGCTAG | -0.0328 z-score
GAAGATTTCGATTACAAAAAGTGCTAG | 1.78 z-score
TTCATTCCTGATCTCTGGTCGTGCTAG | 0.348 z-score
GAGGGTCTCCTACTGCTGACGTGCTAG | -0.308 z-score

A few entries again (series 4):
Strand | relative absorbance
AAAAAAACTATAGTCTTTGTCATGATAAAA | 17 % of maximum
AAAAAACTGGTGTATCTCCTCAATTAAAAA | 17 % of maximum
AAAAAAATATTTGAGCTAGGTTATCAAAAA | 14.1 % of maximum
AAAAAAGTCCGCCCTTAATTCATATTAAAA | 34 % of maximum
AAAAAAGACACTCTAATTCCGTAGGCAAAA | 10.7 % of maximum
AAAAAATTTTGTTTTTGCTTTTCCTTAAAA | 9.8 % of maximum
AAAAAACCTTACCTCATCCCTATCCCAAAA | 14.7 % of maximum
AAAAAAAATACTGCGCACTTGCACTCAAAA | 14.7 % of maximum
AAAAAAGTCCATAAACTAAATTGGATAAAA | 14.1 % of maximum
AAAAAAGGGAGTCATGCTTCTTGTTTAAAA | 16.7 % of maximum
AAAAAATATTCGCCGGTAGCCACGCTAAAA | 13.8 % of maximum
AAAAAATCGCACTGCCGCCGATGGCTAAAA | 15.3 % of maximum
AAAAAAGGAAAACGAGTTCATCTGGTAAAA | 14.1 % of maximum
AAAAAAGTCTAGTCGTAAAAA | 18.7 % of maximum
